Experimental data of several laboratories.
Each numbered part is a random draw from the data of one study; scales do not carry over between parts.

Sample 1
Target: Prothrombin, mature alpha-thrombin (F2, Homo sapiens, UniProt P00734)
Method: aptamer microarray, sandwich
Molecule type: DNA with 2'F-ANA
Sample: in vitro
Concentration: 200 nM
Notes: whole 15-mer aptamer, many near background
Together with: Cy3 exosite-II aptamer, 400 nM
Direction: higher = stronger binding
Sequence: GGTTGGTGTGGTTGG
| Modification | mean fluorescence intensity [a.u.] |
| --- | --- |
| 2'F-ANA at 2 4 6 8 11 14 15 | 85.9 |
| 2'F-ANA at 3 4 5 6 8 9 10 11 12 14 15 | 54.5 |
| 2'F-ANA at 1 3 4 5 11 12 13 15 | 69.8 |
| 2'F-ANA at 1 4 6 8 9 10 12 14 15 | 49.3 |
| 2'F-ANA at 3 5 7 9 10 12 13 14 | 58.4 |
| 2'F-ANA at 1 3 7 9 12 14 15 | 112 |
| 2'F-ANA at 1 3 4 6 7 8 9 10 11 12 | 103 |
| 2'F-ANA at 3 4 7 9 11 12 13 14 15 | 299 |
| 2'F-ANA at 1 8 9 13 | 144 |
| 2'F-ANA at 2 3 8 9 10 11 12 14 15 | 250 |
| 2'F-ANA at 1 2 3 4 7 8 10 11 12 14 15 | 50.2 |
| 2'F-ANA at 2 3 4 7 8 11 13 14 15 | 247 |
| 2'F-ANA at 1 2 3 4 5 6 8 9 11 12 13 15 | 103 |
| 2'F-ANA at 1 2 3 4 6 7 8 10 11 15 | 65.6 |
| 2'F-ANA at 1 3 4 5 6 8 9 10 13 14 15 | 52.4 |
| 2'F-ANA at 2 3 5 6 7 11 | 73.4 |
| 2'F-ANA at 3 4 7 8 10 14 15 | 225 |
| 2'F-ANA at 1 2 3 4 5 6 10 14 | 69.1 |
| 2'F-ANA at 3 5 6 8 10 12 13 14 15 | 58.7 |
| 2'F-ANA at 3 7 8 10 12 13 14 | 438 |
| 2'F-ANA at 1 4 5 6 10 11 13 15 | 52.3 |

Sample 2
Target: Fragile X messenger ribonucleoprotein 1, C-terminal low-complexity region (Fmr1, Mus musculus, UniProt P35922)
Method: RNA Bind-n-Seq
Molecule type: RNA
Sample: in vitro
Concentration: 200 nM
Notes: whole 134-nt RNA, ends assumed
Together with: 150 mM KCl
Reference: input library
Direction: higher = stronger binding
Shared flanks, not repeated: GGGAGUUCUACAGUCCGACGAUC … UGGAAUUCUCGGGUGUCAAGG
| Sequence | log2 enrichment |
| --- | --- |
| UGGGAGGUGGAUUUUGUUUAUUUUUUUAGCUCAUGUCCAGGGGUGGGAAUUUUUUUUUAAUAUGUGUCAUGAAUAAAGUUGUUUUUGAAA | 0.185 |
| AGUCCUGUGCUACACAUCGUAUGUACCGAAUCGGGUUUUGGGGUUUUGGUUUUGGGGAAAGUAUUAUGUUACGCCGUUCGGAUCUGCACU | 0.321 |
| AAGUCCUGUGCUACACAUCGUAUGUACCGAAUCGGGGUUUGGGGUUUGGGGAGGGGAAAGUAUUAUGUUACGCCGUUCGGAUCUGCACUU | 1.2 |
| AAGUCCUGUGCUACACAUCGUAUGUACCGAAUCGGGAAAAAAAGGGUUUGGGAGGGAAAGUAUUAUGUUACGCCGUUCGGAUCUGCACUU | 0.725 |
| AAGUCCUGUGCUACACAUCGUAUGUACCGAAUCGGGGCCCGGGCCCGGGCCCGGGGAAAGUAUUAUGUUACGCCGUUCGGAUCUGCACUU | -0.0593 |
| AGUCCUGUGCUACACAUCGUAUGUACCGAAUCGGGGUGGGGUUUUUUUGGGGUGGGGAAAGUAUUAUGUUACGCCGUUCGGAUCUGCACU | 1.38 |
| UCAAGUCCUGUGCUACACAUCGUAUGUACCGAAUCGGGGAAGGGGAAGGGAAGGAAAGUAUUAUGUUACGCCGUUCGGAUCUGCACUUCC | 0.0404 |
| CCUCAAGUCCUGUGCUACACAUCGUAUGUACCGAAUCGGGUGGUGGGGUGGGGAAAGUAUUAUGUUACGCCGUUCGGAUCUGCACUUCCA | 1.07 |
| UCCUGUGCUACACAUCGUAUGUACCGAAUCGGGCCCCCCGGCCCCCCGGGCCCCCCGGGGAAAGUAUUAUGUUACGCCGUUCGGAUCUGC | -0.0764 |

Sample 3
Target: RNA binding protein fox-1 homolog 2, RRM domain, GST-SBP tag (RBFOX2, Homo sapiens, UniProt O43251-10, residues 100-194)
Method: RNA Bind-n-Seq
Molecule type: RNA
Sample: in vitro
Concentration: 365 nM
Notes: natural RNA segment, single round, ends assumed
Reference: no-protein control
Direction: higher = stronger binding
Shared flanks, not repeated: GGGAGUUCUACAGUCCGACGAUC … UGGAAUUCUCGGGUGCCAA
Target sequence (chain): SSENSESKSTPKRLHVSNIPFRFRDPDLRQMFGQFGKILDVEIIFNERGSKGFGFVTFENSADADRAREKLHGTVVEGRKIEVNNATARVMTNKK
| Sequence | RBNS enrichment (R) |
| --- | --- |
| UCCACAAAUGCUGUAUACAGGCUGUACCGCUGCUUCAAACCCCACUUGUCCAGUGCUUCACAGUGUUGCUAAUCAGUGGAGAAAUACAUGCUUUCAUUAUCAAGUGUAGU | 0.432 |
| ACCAUGGUUCUGAUUGUUGUGUAUAUUUUUCUAAAGGCUGAAUAAAGCUAUCUAUGAAUGUGAACAAUGGGUCUACGUCUGUUGUUUUUAAGUUUUAAGUUUGAAACCAG | 0.504 |
| CCUGCUACAGAGGGGAAGAAAGUGUACCCUCCAAUGUGAUAAAUCUUCUGAUGCCCCCAGACUCUUGGAGCACAUCCUGGUGCCCCUCCUGCAGGAGCCUGUGGCAUAUU | 0.439 |
| AAUUCAUUUUUAUGAAUAAAUCUCUUCUUUCUCAUGGUAAAUGUGGCUUGUGCCACUCAAACACUAGUGAAAGGGUAUGUACAACCGCAACAUCAGGCCAGGACACCAUU | 0.3 |
| ACACUGCCGCGCCCAGCUAAUUUUUUGUAUUUUUUAGUAGAGACAGGGUUUCACUGUGUUGCCCAGGCUGGUCUCAAACUCCUGAGCUCAGGCAAUCUGCCCGCCUUGGC | 0.632 |
| AGAUGCAUAAAUCCUUAGAUACCUGGGUUUUUUAAUAGGUUUAGGUUUGGGUAUUGUGUUUCUGGUCUUUUAACUCAAAAUUAAGGUUUGAGCUUUAAUAGGACUAAAUU | 0.354 |
| AAGGUUAAUAGCACCGGGGAACAAUUUCUCUGGGUGAGAAUUGGGACUCUGUUGCUGGUCUUCUCAGUUCAUUUCCUGAGGUGGAUUUACUGAGAGAAGGUGAAAUAAAG | 0.49 |
| UCGACAAAUGAGGGCAGACGGCUAAUCCACAUGGUCUUCGUCCUUGACGUCGUUUUACAAGAAAACAAUGGGGCUGGUUUUGCUUCCCCGUGCAUGAUUUACUCUUAGAG | 4.5 |

Sample 4
Target: Centromere-binding protein 1, full length, N-terminal tag (CBF1, Saccharomyces cerevisiae, UniProt P17106, residues 1-351)
UniProt P17106, sequence (whole entry, looked up): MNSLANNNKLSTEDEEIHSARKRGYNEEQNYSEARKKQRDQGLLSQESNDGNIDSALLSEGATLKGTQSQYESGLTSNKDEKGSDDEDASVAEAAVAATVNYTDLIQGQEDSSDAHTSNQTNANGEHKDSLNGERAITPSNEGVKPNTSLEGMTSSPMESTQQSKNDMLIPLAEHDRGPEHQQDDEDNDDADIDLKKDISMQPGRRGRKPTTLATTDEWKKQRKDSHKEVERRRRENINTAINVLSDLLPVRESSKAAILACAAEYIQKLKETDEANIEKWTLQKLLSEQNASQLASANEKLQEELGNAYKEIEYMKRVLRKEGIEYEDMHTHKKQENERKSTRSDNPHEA
Method: protein-binding microarray
Molecule type: double-stranded DNA, one strand shown
Sample: in vitro
Concentration: 0.8 µM
Notes: whole 60-bp probe, no competitor
Direction: higher = stronger binding
Shared flanks, not repeated: … GTCTTGATTCGCTTGACGCTGCTG
| Sequence | fluorescence intensity [a.u.] |
| --- | --- |
| CTAATTTTAGTTAAGCACATGCATACATAAATTTTC | 968 |
| CTAAAAAGAGAAGACCCCCACGTGCCCTAAAAATTC | 3000 |
| GAAAACGTGCACCAACACGTGTGCGGCAACCTGTAG | 4040 |
| CCTAACTACTATATGATCATGAAATAGCTTCGTACA | 559 |
| GAATAGTAGCCCTGACACGTTTTGAAATTCTTTTAG | 579 |
| CTATGGCAATAGCTTTTCGTGACTTGTTTTAAATTC | 574 |
| GAACAAAAAAAGAATGGCGTGGGGTGGGGTGATTAG | 536 |
| GAATGCAATTATTAACACGTTTTCATCCGTTTATAG | 750 |
| TGTACGAAGCTATAAGGCACCACTATAGTAGTTAGG | 502 |
| CTACCTTGGCGGTTTCACCAGACAACATAACACTTC | 510 |
| CTATGCACATGGACGCACGTTGTGTGTTCATATTTC | 635 |
| CTATAATACCGCGGGCACATGAGATGTTAACAATTC | 607 |
| CTAGTATATCTATATTCCGTGATGCCTTTGTGGTTC | 557 |
| CTATCTGTAAGCCCCTTCGTGATATTTCAAGGTTTC | 551 |
| GAAAAACATGCTCATATGATTATCATGAAAGCATAG | 597 |
| GAACATTTTATCCATTATCTGATGCATTTCCCTTAG | 513 |
| GAACCTTAAACGATGGACGTGGTGTGTGAATGTTAG | 538 |

Repeated from above (sample 1):
| Modification | mean fluorescence intensity [a.u.] |
| --- | --- |
| 2'F-ANA at 1 8 9 13 | 144 |
| 2'F-ANA at 1 3 4 6 7 8 9 10 11 12 | 103 |
| 2'F-ANA at 3 4 7 9 11 12 13 14 15 | 299 |
| 2'F-ANA at 3 4 5 6 8 9 10 11 12 14 15 | 54.5 |
| 2'F-ANA at 1 3 7 9 12 14 15 | 112 |
